Published values collected from several papers.
Parts stem from different laboratories: compare values within a part only. Positions count from the first letter of the parent shown.

Set 1
Target: CCNB3, cyclin fold, Cln2 fusion (human)
Method: yeast growth competition, sequencing
Medium: yeast
Notes: weak parent motif
Reference: not given
Reading: higher = stronger binding
Starting sequence: RB1 docking peptide (human); PKPLKKLRFDIEG
Change | normalised enrichment score
PKPLKKLRFDTEG [I11T] | -0.483
PKPLKKLRFDIEV [G13V] | 0.155
PKPLKKLRFDIQG [E12Q] | 0.111
PKMLKKLRFDIEG [P3M] | 0.213
PKPLPKLRFDIEG [K5P] | 0.369
PKPLKKLRFCIEG [D10C] | -0.105
PYPLKKLRFDIEG [K2Y] | 0.907
PKPLKKLRFDIEC [G13C] | 0.279

Set 2
Target: Prothrombin, mature alpha-thrombin (F2, Homo sapiens, UniProt P00734)
Method: aptamer microarray, sandwich
Molecule type: DNA with 2'F-ANA
Medium: in vitro
Concentration: 200 nM
Notes: whole 15-mer aptamer, many near background
Added: Cy3 exosite-II aptamer, 400 nM
Reading: higher = stronger binding
Oligonucleotide: GGTTGGTGTGGTTGG
Modification | mean fluorescence intensity
2'F-ANA at 3 4 8 10 13 15 | 238 a.u.
2'F-ANA at 1 5 7 9 11 12 15 | 87.4 a.u.
2'F-ANA at 1 2 5 9 10 12 13 14 | 68.2 a.u.
2'F-ANA at 4 6 7 9 10 11 12 | 101 a.u.
2'F-ANA at 7 8 9 10 12 | 224 a.u.
2'F-ANA at 1 2 4 5 6 8 9 10 11 12 15 | 52.8 a.u.
2'F-ANA at 1 3 4 9 11 12 13 14 15 | 67.3 a.u.
2'F-ANA at 1 5 7 8 9 10 11 12 15 | 94.3 a.u.

Set 3
Target: Interferon regulatory factor 7, full length, phosphomimetic (IRF7, Homo sapiens, UniProt Q92985, residues 1-503, S471D/S472D/S475D/S476D/S477D/S483D/S484D/S487D)
Method: protein-binding microarray
Molecule type: double-stranded DNA, one strand shown
Medium: in vitro
Concentration: 2200 nM top
Notes: 60-bp whole probe
Added: salmon DNA 0.4 mg/ml
Reference: random background probes
Reading: higher = stronger binding
All sequences stand within: GCCTAGCAC … GTCTTGATTCGCTTGACGCTGCTG
Residues (chain): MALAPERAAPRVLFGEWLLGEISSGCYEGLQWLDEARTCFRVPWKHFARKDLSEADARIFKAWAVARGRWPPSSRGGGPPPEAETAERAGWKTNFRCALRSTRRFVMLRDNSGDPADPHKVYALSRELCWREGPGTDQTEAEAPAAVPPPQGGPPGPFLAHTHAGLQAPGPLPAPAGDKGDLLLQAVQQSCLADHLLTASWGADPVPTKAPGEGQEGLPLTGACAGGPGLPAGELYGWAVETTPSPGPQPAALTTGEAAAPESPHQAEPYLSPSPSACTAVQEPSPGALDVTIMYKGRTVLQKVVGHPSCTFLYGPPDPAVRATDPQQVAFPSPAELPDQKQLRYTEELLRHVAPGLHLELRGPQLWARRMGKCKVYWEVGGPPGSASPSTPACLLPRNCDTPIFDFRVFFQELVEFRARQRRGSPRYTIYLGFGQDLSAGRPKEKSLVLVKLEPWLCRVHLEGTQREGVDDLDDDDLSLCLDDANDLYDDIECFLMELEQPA
Oligonucleotide | fitted relative affinity
TCTTATATACCTGTATATCTGTGCTAG | 1.05 z-score
ACACTTTCCCCTTCCTAGTTGTGCTAG | 6.91 z-score
GACGATTTCGGGTATCGAGAGGTGCTA | 2.8 z-score
TCAACTTTCACTTCTCCACTGTGCTAG | 9.24 z-score
GACGATTTCAGTATCGTGACGTGCTAG | 0.816 z-score
AGGACTCGAATCCTGCAGGGGTGCTAG | 0.352 z-score
TTAGGTCTCCTTTTCTTTTAGTGCTAG | 1.72 z-score
TTAGATTTCAGTATCGATTAGTGCTAG | 0.797 z-score
GACGGTTCCGGCTTCGGGACGTGCTAG | 0.846 z-score

Mixed results
Substance | target | assay | system | setting | scale | quantity | result
PhoQ, residues 284 288 289 292 302 303 SSTLLI | PhoP, residues 12 14 15 18 19 STWGI (Escherichia coli, UniProt P23836) | Sort-seq, measured: YFP reporter | E. coli | PhoQ-PhoP variant library, added: 10 µM Mg2+ | reference: high Mg2+ state, higher = stronger signaling | fold induction | 3.49

Some of these lines once more (set 2):
Modification | mean fluorescence intensity
2'F-ANA at 3 4 8 10 13 15 | 238 a.u.
2'F-ANA at 1 5 7 9 11 12 15 | 87.4 a.u.
2'F-ANA at 1 2 5 9 10 12 13 14 | 68.2 a.u.
2'F-ANA at 4 6 7 9 10 11 12 | 101 a.u.
